Assay results pooled from the literature.
A part holds a random share of what one study measured.

Series 1
Target: Histone acetyltransferase KAT6A, winged helix 2, GST fusion (KAT6A, Homo sapiens, UniProt Q92794, residues 85-181)
Method: protein binding microarray
Molecule type: double-stranded DNA, one strand shown
Medium: in vitro
Tested at: not given
Notes: 8-mer, flanks averaged, mean of 2 arrays, mostly near background
Baseline: not given
Reading: higher = stronger binding
Construct (chain): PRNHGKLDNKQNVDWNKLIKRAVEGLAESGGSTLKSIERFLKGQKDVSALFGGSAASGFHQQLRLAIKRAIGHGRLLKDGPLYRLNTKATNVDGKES
Sequence	E-score
CATCCCTC	0.057
CTGGTACC	-0.0146
AAGCACAC	-0.0761
CTTCAAAG	-0.062
CTGTTTTC	0.125
TTCAACAA	0.00362
TCGTTAGA	-0.149
GCCTTACC	-0.168
CTACGGTC	-0.165
GCATCTGA	-0.126
ATCAAACG	-0.116
AGCGCTCA	0.0289
AGTTGTAT	-0.0204
GGGATTGA	0.00494
ACCACTAG	-0.196
AGCGGTAG	-0.0181
ATATTGGA	-0.106
ATAACCTG	-0.269
AGGACTAG	-0.0684
GGCTCAAA	-0.0401
AAACTGGC	-0.0159
CAGAGTCA	-0.0375
CCCGCGCG	0.295
TATTTAAA	0.00681
CTATTTAA	-0.121

Series 2
Target: RING finger protein unkempt homolog, zinc fingers 1-6, GST-SBP tag (UNK, Homo sapiens, UniProt Q9C0B0, residues 30-357)
Method: RNA Bind-n-Seq
Molecule type: RNA
Medium: in vitro
Tested at: not given
Notes: RNA with constant flanks, human and mouse sites, ends assumed
Baseline: input RNA pool
Reading: higher = stronger binding
Constant ends, left off below: GGGAGUUCUACAGUCCGACGAUC … CAACAGAGGAUUGAGCAUCA
Target sequence (chain): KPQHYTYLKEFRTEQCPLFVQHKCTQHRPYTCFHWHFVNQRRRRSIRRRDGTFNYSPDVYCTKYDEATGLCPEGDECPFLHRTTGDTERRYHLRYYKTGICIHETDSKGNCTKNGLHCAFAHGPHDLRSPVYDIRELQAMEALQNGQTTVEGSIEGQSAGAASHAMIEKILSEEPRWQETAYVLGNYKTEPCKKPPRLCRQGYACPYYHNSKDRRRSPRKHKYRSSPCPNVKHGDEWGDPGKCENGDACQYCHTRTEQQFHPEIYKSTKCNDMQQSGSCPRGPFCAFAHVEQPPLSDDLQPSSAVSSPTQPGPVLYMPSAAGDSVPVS
Sequence	bound/input enrichment [ratio]
UGCUUUCUAUCUCUGGGAAAAAGGAGCAGCAUUUGGCCAUGUUCUUUUGUUUUUCUAUUCCUGUCCCAAAUCAAAGAGCAUGGUUCUCAGGAAAACCAGUUCCCCAGUUUAAAAAAAAAA	0.182
AUGUCUAGUGGCCUAGAAUUUGUAUCCCACAAUCCCCCAAGUGAAGCAGCUGCUCCUCCAGUGGCAAGGACCAGUCCUGCAGGGGGAACGUGGUCCUCAGUGGUCAGUGGGGUUCCAAGG	0.11
GUUUUGCCAAAACCUCGGAUGCGUGGCCUUCUGGCCAGGCGUCUGCGAAAUCAUAUGGCUGUAGCAUUCGUGCUAUCCCUGGGGGUUGCAGCUUUGUAUAAGUUUCGUGUGGCUGAUCAA	0.0806
AUAGUAUGUGAUCCUGUAUAACAGACUGAGUCUAUUUAUAUUUUCUUUUUUUUAAGACUGUCUAGAAAUUUUGUGUAUUAUGAGGGGAAAAAAGGAAAAGCUUGAAUCUGUGUAGUCUCU	3.05
GGACCCCAGGUCAGGGGCUCCCUACAUUCCCCAGAGUGGGAUCCACUUCUUGGUUCCUGGGAUGGCGAUGGGGACUCUGCCGCUGUGUAGGGACCAGUGGGAUGGGCUCUACCUCUCUUU	0.0741
GAUGGGCAGUACUUUGUCUGCAAUAUGGAUGAUUUUAAGUUCUCUGCAGAGCUGAUCCAGCAUAUCCCACUAAGUCUCCGGGUGAGGUAUGUGUUCUGCACAGCCCCCAUCAAUAAGAAG	0.133
ACAUCUCAUAUUUCGGCACAGUCCUUUUUUGAAAAUAAAUAUGGUCACUUAGAUAUGUUCAGUACAUUACGUUCCUCUAGCUUGUACAGGCAACAUCCAAAAACUCUUCGAAGCAUUUGU	0.527
GAACUGUUGAGUUCUUAUGAUGUUGAUAUUAAUCAGAUCAUAAAUACCAUAUCUGAAUGGGUAGUUAUGAUUAAGACCAGAGGUGUUAGGCGACCGGAGUUUCAGCCUCUACUAACUGAG	0.088

Series 3
Target: RNA binding protein fox-1 homolog 2, RRM domain, GST-SBP tag (RBFOX2, Homo sapiens, UniProt O43251-10, residues 100-194)
Method: RNA Bind-n-Seq
Molecule type: RNA
Medium: in vitro
Tested at: 365 nM
Notes: natural RNA segment, single round, ends assumed
Baseline: no-protein control
Reading: higher = stronger binding
Constant ends, left off below: GGGAGUUCUACAGUCCGACGAUC … UGGAAUUCUCGGGUGCCAA
Residues (chain): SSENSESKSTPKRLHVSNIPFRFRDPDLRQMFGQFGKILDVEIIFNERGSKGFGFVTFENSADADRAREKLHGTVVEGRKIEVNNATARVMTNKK
Sequence	RBNS enrichment (R)
GAAGACACAAAGUAUGGGGGAAGACAGCAAUCAAAACUAACUUUUUGUAGAUAGCCAUUUCAUUUCUUUAAACUGUUUCAACGCCAAUAUGUAUUCUACAAAAGAGAAUG	0.618
CCUCCUCCCCACCCCCUCGUCAGCCAGCGUUGCUGUUCCUUGCAGAGAAAAGGAUUGUGGGAAACUCCAGGACUCUUCCCACCGCCUCCCAGCGCCUGCCUGCUGGGGCU	1.36
UGGCUGAGUGUGGAUGACUUUUAUUUUAGGAGAAGGGCGAUUAACACUUUUGACAGUAUUUUGUUUUGCCCUGAUUUGGGGGAUUGUUUUGUUUUGGUGGUUGUUUUGGA	6.84
CCACCGGCUCUGUCUUGGUCAGUGUUACCACUGCCAGCACUCAGGCUGUGGCAGAUGCCAGCAGCUCUUACCAUCAGUCAGAGUCUUCAGGGUGUCAAGCUGUUUUCAUU	0.321
UUCCUGGAGCCAUUUGGUAUGAGGUAUUAAUUUAGCUUAACUAAAUUACAGGGGACUCAGAGGCCGUGCUCCUGACCGAUCCAGACACUAUUACUGGCUUUUUUUUUUUU	0.545
GGUGGCAUGGGACUUUUUGUCCUUGGACACAAACCUGCAGAUCCUAGGAGUAAUAGUUUCCCCCAAGGACAGCCCAGCCCAUGGACCACUUCUUCCUCAGUGGAGAUACC	0.358
CGUGGCCUUGUCUAGACCCAGUCCUGAGCAGAGGAGCCUGGUGCCCUCCCAGUCCACAGGGUCUUCCCACUGCCCCUCCUCUGCCACUGCCACAGAGCAGCUUCCCACCU	0.223
UGUACAUUUAAGUCUGUAUUAUAAUAAGCAAAAAGAUUGUGUGUAUGUAUGUUUAAUAUAACAUGACAGGCACUAGGACGUCUGCCUUUUUAAGGCAGUUCCGUUAAGGG	0.99

Series 4
Target: Sal-like protein 4, full length isoform B (SALL4, Homo sapiens, UniProt Q9UJQ4-2, residues 1-616)
Method: universal PBM
Molecule type: double-stranded DNA, one strand shown
Medium: in vitro
Tested at: not given
Notes: 8-mer, flanks averaged, mean of replicates
Reading: higher = stronger binding
Residues (chain): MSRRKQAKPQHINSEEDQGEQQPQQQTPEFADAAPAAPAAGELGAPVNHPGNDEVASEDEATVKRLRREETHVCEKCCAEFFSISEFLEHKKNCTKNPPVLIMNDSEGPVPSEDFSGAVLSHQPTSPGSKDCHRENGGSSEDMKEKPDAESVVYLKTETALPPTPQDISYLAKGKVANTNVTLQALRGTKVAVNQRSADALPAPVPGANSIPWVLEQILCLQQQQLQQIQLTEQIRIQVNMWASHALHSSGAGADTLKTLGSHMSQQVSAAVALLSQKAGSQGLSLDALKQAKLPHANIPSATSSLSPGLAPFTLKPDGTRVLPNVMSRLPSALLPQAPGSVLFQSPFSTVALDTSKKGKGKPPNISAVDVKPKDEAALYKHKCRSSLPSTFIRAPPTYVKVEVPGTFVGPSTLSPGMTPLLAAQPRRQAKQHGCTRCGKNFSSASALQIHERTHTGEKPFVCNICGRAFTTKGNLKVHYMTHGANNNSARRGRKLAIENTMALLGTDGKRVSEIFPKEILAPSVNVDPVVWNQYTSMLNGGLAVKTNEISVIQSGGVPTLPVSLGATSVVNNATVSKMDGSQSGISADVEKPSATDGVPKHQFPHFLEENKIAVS
Sequence	E-score
CCCAACTC	-0.052
CAAATGCA	0.128
CACCCGCG	-0.237
CAACGGTA	-0.159
CATGCCTC	0.00689
AAGATGTC	0.0896
GAGCAAGA	-0.0439
CCCCCCGA	-0.15
ACCCCAGT	-0.172
GCCGTGCC	-0.226
CAGGTGTC	-0.128
CGCCTGGC	-0.259
CGTATGCC	-0.182
GACAGACC	-0.203
AACTCACT	-0.0413
ACCTTCAC	-0.038
GATAGGGC	-0.136
CCGAGTAC	-0.238
GCCCTGCC	-0.342
ACTTTAGA	0.143

A few entries again (series 1):
Sequence	E-score
CATCCCTC	0.057
CTTCAAAG	-0.062
CCCGCGCG	0.295
GCATCTGA	-0.126
